Experimental data of several laboratories.
Each line is one published result; not all experiments were run side by side. ± gives the spread as reported.
IDO1: Indoleamine 2,3-dioxygenase 1 (IDO1, Homo sapiens, UniProt P14902)
Sequence of UniProt P14902 (whole entry, looked up): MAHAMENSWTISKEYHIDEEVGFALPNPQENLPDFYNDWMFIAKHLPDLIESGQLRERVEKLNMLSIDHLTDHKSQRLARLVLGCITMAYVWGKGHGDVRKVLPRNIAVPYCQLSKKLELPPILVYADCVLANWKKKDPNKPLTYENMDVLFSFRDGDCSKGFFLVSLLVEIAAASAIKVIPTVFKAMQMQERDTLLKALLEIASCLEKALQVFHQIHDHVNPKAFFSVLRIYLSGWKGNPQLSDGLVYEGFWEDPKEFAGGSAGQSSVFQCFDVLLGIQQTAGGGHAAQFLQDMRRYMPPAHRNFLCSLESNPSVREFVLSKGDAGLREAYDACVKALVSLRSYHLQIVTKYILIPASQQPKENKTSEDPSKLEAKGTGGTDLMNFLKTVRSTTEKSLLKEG
Gria2/Glutamate receptor 3: Gria2/Glutamate receptor 3 (Rattus norvegicus, UniProt P19491+P19492)
Sequence of UniProt P19491 (whole entry, looked up): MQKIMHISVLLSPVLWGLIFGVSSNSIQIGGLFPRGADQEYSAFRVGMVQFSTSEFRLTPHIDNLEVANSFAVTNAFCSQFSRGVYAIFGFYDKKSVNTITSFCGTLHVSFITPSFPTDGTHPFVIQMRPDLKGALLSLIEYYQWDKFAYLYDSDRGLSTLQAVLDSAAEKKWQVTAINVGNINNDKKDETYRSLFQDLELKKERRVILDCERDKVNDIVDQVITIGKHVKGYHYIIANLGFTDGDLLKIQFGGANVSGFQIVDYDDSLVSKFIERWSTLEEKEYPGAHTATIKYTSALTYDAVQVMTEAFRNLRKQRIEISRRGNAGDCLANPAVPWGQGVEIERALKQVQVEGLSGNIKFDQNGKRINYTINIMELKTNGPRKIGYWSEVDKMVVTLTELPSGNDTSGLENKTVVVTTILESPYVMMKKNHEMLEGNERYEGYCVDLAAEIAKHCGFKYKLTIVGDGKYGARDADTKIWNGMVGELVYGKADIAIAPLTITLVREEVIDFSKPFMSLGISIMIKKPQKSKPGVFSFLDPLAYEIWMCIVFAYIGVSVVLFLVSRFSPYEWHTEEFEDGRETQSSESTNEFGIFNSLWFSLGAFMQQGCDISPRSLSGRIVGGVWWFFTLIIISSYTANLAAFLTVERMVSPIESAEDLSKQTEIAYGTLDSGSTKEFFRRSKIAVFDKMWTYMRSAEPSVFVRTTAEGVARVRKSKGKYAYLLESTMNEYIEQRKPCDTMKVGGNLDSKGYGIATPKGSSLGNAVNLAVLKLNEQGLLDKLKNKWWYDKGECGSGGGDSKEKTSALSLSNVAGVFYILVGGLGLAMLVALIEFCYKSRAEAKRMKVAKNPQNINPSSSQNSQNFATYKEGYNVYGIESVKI
Sequence of UniProt P19492 (whole entry, looked up): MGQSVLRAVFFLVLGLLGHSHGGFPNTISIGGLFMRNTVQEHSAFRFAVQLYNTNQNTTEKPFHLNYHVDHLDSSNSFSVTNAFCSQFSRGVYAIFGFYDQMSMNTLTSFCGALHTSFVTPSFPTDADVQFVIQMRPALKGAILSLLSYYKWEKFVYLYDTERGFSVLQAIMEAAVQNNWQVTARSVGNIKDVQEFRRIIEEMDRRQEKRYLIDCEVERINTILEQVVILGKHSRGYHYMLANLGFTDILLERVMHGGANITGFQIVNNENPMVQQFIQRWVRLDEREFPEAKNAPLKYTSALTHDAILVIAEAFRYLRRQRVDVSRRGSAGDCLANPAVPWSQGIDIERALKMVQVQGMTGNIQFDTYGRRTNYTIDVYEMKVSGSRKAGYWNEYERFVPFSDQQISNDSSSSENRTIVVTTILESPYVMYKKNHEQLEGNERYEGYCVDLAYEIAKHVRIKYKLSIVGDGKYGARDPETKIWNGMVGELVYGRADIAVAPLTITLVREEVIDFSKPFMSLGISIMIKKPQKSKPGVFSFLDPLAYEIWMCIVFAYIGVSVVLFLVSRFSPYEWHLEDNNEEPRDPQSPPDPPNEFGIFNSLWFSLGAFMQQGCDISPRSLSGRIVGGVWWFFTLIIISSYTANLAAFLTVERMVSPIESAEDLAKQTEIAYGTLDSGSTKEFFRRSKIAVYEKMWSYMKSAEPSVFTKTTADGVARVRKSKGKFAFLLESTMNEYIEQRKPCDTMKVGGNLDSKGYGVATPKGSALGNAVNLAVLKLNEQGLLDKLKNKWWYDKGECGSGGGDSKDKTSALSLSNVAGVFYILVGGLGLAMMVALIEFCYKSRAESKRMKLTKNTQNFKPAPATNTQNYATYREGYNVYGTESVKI
60 kDa heat shock protein, mitochondrial with HSP10: 60 kDa heat shock protein, mitochondrial, with HSP10 (Homo sapiens, UniProt P10809)
Sequence of UniProt P10809 (whole entry, looked up): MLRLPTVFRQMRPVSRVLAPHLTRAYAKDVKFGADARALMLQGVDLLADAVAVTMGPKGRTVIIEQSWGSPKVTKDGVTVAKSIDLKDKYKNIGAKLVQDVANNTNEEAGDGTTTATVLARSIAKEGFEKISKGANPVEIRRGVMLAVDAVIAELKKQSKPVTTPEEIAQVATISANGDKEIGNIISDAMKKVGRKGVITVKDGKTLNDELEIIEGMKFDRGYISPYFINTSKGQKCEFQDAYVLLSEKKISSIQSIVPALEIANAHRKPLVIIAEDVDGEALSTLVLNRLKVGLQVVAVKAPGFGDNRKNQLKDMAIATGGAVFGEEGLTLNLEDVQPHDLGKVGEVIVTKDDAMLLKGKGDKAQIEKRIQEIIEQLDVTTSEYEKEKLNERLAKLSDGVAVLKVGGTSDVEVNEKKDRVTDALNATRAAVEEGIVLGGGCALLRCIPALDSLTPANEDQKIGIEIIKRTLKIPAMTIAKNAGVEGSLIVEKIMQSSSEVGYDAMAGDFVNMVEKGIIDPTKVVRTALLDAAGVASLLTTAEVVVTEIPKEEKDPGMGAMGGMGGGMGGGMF
PIM1: Serine/threonine-protein kinase pim-1 (PIM1, Homo sapiens, UniProt P11309)
Sequence of UniProt P11309 (whole entry, looked up): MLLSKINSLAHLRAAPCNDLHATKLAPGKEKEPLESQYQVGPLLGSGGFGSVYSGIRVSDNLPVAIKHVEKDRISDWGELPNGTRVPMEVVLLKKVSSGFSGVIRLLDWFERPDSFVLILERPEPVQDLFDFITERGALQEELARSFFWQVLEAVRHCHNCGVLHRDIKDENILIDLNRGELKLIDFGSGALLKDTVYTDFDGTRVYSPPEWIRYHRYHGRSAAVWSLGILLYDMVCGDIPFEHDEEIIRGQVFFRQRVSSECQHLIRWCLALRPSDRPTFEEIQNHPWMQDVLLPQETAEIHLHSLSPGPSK
PIK3CA: Phosphatidylinositol 4,5-bisphosphate 3-kinase catalytic subunit alpha isoform (PIK3CA, Homo sapiens, UniProt P42336)
Sequence of UniProt P42336 (whole entry, looked up): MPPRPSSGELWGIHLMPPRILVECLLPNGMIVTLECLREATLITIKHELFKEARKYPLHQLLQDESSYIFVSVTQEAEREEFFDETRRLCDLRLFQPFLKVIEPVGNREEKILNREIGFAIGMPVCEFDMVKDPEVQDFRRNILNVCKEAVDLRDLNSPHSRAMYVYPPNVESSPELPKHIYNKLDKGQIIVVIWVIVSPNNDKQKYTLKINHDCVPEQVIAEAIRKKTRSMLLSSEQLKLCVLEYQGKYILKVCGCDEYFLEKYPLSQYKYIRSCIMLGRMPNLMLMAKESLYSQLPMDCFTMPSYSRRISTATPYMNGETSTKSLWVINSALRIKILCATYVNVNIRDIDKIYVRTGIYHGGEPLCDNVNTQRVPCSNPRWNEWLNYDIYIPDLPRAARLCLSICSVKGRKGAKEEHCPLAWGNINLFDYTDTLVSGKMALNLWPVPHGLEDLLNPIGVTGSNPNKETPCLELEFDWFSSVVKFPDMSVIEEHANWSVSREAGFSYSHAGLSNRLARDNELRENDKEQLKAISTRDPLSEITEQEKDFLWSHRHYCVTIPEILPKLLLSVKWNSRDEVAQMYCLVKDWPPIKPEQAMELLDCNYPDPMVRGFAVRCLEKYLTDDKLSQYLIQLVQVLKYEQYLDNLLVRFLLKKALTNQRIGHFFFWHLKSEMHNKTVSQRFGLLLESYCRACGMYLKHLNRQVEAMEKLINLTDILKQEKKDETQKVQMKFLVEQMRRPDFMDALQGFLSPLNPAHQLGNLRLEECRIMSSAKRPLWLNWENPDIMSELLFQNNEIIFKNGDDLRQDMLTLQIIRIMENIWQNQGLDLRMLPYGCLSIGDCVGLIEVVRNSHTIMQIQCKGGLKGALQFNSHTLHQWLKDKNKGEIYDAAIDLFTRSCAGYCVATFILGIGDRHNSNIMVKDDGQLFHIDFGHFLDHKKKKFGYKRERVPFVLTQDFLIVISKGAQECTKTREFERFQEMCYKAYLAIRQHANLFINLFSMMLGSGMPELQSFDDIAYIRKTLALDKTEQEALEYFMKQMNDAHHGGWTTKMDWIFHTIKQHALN
Sequence of UniProt P35503 (whole entry, looked up): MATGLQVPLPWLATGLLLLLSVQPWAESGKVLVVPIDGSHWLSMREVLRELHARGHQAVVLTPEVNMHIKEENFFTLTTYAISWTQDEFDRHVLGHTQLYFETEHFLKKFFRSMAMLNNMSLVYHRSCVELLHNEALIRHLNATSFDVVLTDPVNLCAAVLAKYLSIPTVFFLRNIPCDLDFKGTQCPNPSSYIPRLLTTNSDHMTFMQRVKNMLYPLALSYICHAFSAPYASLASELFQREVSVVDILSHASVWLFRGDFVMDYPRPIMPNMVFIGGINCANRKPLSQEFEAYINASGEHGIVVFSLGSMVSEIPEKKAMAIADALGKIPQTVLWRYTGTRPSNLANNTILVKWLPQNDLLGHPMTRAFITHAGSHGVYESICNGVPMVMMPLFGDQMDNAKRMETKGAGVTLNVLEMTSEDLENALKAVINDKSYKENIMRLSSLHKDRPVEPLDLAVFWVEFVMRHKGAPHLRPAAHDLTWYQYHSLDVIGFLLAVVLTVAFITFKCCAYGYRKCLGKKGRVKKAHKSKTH
Sequence of UniProt P35346 (whole entry, unmodified, looked up): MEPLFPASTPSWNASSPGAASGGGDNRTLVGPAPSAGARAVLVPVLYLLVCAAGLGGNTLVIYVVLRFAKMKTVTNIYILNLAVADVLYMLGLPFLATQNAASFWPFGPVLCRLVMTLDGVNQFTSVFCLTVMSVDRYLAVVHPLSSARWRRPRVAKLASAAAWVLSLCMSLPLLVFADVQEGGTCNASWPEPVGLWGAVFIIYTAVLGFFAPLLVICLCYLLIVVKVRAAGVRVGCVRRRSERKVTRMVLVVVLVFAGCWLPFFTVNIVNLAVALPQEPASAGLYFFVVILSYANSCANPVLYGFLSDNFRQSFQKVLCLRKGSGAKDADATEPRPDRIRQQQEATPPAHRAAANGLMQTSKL

Structure (SMILES) | target or system | assay | system | setting | endpoint | value
Fc1cccc(COc2ccc(Nc3ncnc4ccc(-c5cccc(CN6CCOCC6)c5)cc34)cc2Cl)c1 | Leishmania major | intracellular amastigote growth, luciferase | RAW264.7 macrophages |  | EC50 | 3 µM
CCN(CC)CC(=O)Nc1cccc(-n2cc(-c3ccc4ccc(-c5cn(-c6cccc(NC(=O)CN(CC)CC)c6)nn5)cc4c3)nn2)c1 | Serine/threonine-protein kinase PLK1 (PLK1, Homo sapiens, UniProt P53350) | enzyme activity, inhibitor |  |  | IC50 | > 10 µM
Cc1oc(C)c(-c2ccc(N(CC(C)C)CC(C)C)c(NC(=O)NC34CC5CC(CC(C5)C3)C4)c2)c1C(=O)O | IDO1 | enzyme activity, inhibitor, recombinant enzyme, refers to: kynurenine |  | 20 min, 2% DMSO, added: L-tryptophan | IC50 | 14 ± 3 µM
O=C(O)Cc1cc2c(cc1C(=O)c1ccccc1I)OCO2 | Gria2/Glutamate receptor 3 | ion current, patch clamp |  |  | IC50 | 4.79 µM
COc1ccc(CNC(=O)c2cnc3c(c(C)nn3C)c2Cl)cc1 | 60 kDa heat shock protein, mitochondrial with HSP10 | HSP60/10-mediated MDH refolding |  | 30 min, preincubation before ATP, added: denatured malate dehydrogenase | IC50 | 8.9 µM
CO[C@@H]1[C@@H](OC(=O)c2ccc(C)[nH]2)[C@@H](O)[C@H](Oc2ccc3c(O)c(NC(=O)c4c[nH]c(C(=O)Nc5c(O)c6ccc(O[C@@H]7OC(C)(C)[C@H](OC)[C@@H](OC(=O)c8ccc(C)[nH]8)[C@H]7O)c(C)c6oc5=O)c4C)c(=O)oc3c2C)OC1(C)C | Replication protein E1, helicase domain (E1, Human papillomavirus type 16, UniProt P03114) | fork unwinding, inhibitor |  |  | IC50 | ~170 µM
Cc1cc(NC2CCN(C)CC2)ccc1-c1cc2c(N3CCC[C@H](C(=O)NCc4ccc(OC(F)(F)F)cc4)C3)ncnc2[nH]1 | PIM1 | enzyme activity, inhibitor, mobility shift |  |  | IC50 | 5.95 µM
COc1c(Cl)cccc1Nc1c(-c2ccncc2C#C[C@@]2(C)CCCN2C(=O)/C=C/CN(C)C)[nH]c2c1C(=O)NCC2 | Mitogen-activated protein kinase 9 (MAPK9, Homo sapiens, UniProt P45984) |  |  |  | IC50 | > 3 µM
CCCC(=O)OC1CCC2(C)C(CCC3(C)C2CC=C2C4C(C)C(C)CCC4(C(=O)O)CCC23C)C1(C)C (stereo not shown) | UDP-glucuronosyltransferase 1A3 (UGT1A3, Homo sapiens, UniProt P35503) | enzyme activity, inhibitor |  |  | IC50 | 70.2 µM
O=C1CCC(N2C(=O)c3ccc(N4CCC(C(=O)N5CCC(CCN6CCC(CNC(=O)c7cccc(-c8noc(C(F)(F)F)n8)c7)(c7nc(-c8ccccc8)cs7)CC6)CC5)CC4)cc3C2=O)C(=O)N1 (stereo not shown) | Histone deacetylase 7 (HDAC7, Homo sapiens, UniProt Q8WUI4) | enzyme activity, inhibitor |  |  | IC50 | 2.41 µM
C[C@@H]1CN(Cc2ccc(S(=O)(=O)n3cnc(C4CC4)n3)cc2)[C@@H](C)CN1c1cc(=O)n(C)c2ccc(C#N)nc12 | Diacylglycerol kinase zeta (DGKZ, Homo sapiens, UniProt Q13574) | inhibitor, ADP-Glo |  | added: DAG micelles | IC50 | 3.16 µM
Cc1ccc(CN2C3(NC(c4ccc(C)cc4)C24C(=O)Nc2ccccc24)C(=O)Nc2ccccc23)cc1 (stereo not shown) | PIK3CA | enzyme activity, inhibitor, ADP detection |  |  | IC50 | 0.817 µM
CCC1C(COc2nccc3cc(C(N)=O)c(OC)cc23)NC(=O)C1F (stereo not shown) | PIM1 | enzyme activity, inhibitor, radiometric |  |  | IC50 | > 10 µM
COC(=O)Cc1cc2c(cc1C(=O)c1ccccc1)OCO2 | Gria2/Glutamate receptor 3 | ion current, patch clamp |  |  | IC50 | 6.12 µM
C#CCCn1nc(C)c2c(Cl)c(C(=O)NCC3CC(Br)=NO3)cnc21 (stereo not shown) | 60 kDa heat shock protein, mitochondrial (Homo sapiens, UniProt P10809) | ATPase activity, inhibitor |  |  | IC50 | > 250 µM
Fc1ccc(Nc2nc(NC3CCCCC3)c3ccccc3n2)cc1F | Beta-2 adrenergic receptor (ADRB2, Homo sapiens, UniProt P07550, C125V) | β-arrestin2 recruitment, antagonist, BRET | HEK293 | mutant C125V, added: isoprenaline 1 µM | IC50 | 1.58 µM
CCC(=O)N1CCC(NC(=O)Nc2cccc(OC(F)(F)F)c2)CC1 | Bifunctional epoxide hydrolase 2 (Ephx2, Mus musculus, UniProt P34914) | enzyme activity, inhibitor |  |  | IC50 | ≥ 10 µM

Structure (SMILES) | target or system | assay | system | setting | endpoint | value
COC(=O)c1cccc(CN2CCC(Nc3nc(NCc4cccc(OC)c4)nc4[nH]cnc34)CC2)c1 | Inositol polyphosphate multikinase (IPMK, Homo sapiens, UniProt Q8NFU5) | enzyme activity, inhibitor |  |  | IC50 | 12 µM
CC1CCC2C(C)C(OC(=O)CCC(=O)OCCOCCOCCOC(=O)N3CCC(Nc4ccc(S(=O)(=O)NC(=O)c5ccc(N6CCN(CC7=C(c8ccc(Cl)cc8)CC(C)(C)CC7)CC6)cc5Oc5cnc6[nH]ccc6c5)cc4[N+](=O)[O-])CC3)OC3OC4(C)CCC1C32OO4 (stereo not shown) | Apoptosis regulator Bcl-2 (BCL2, Homo sapiens, UniProt P10415) | ligand displacement, FP |  |  | IC50 | 0.71 µM
O=C(O)Cc1cc2c(cc1C(=O)c1cccc(Br)c1)OCO2 | Gria2/Glutamate receptor 3 | ion current, antagonist, patch clamp |  |  | IC50 | 4.57 µM
O=C(CCNC(=O)CNC(=O)CC(c1ccccc1)(c1ccccc1)c1ccccc1)NC[C@H]1CCCN(C(=O)c2ccc(F)cc2)C1 | Muscarinic acetylcholine receptor M1 (CHRM1, Homo sapiens, UniProt P11229) | ligand displacement, radioligand |  | cell membranes | IC50 | > 30 µM
CCn1nc(Cl)c2c1-c1cnc(N)c(c1)O[C@H](C)c1cc(F)ccc1-c1nn(C)cc1C2 | Insulin receptor-related protein (INSRR, Homo sapiens, UniProt P14616) | enzyme activity, inhibitor, radiometric |  |  | IC50 | 0.655 µM
O=C1/C(=N\c2ccccc2Br)c2ccccc2N1Cc1ccc([N+](=O)[O-])cc1 | PIK3CA | enzyme activity, inhibitor, ADP detection |  |  | IC50 | 0.0153 µM
CCOc1cc(CN2CC3(CC(N4CCC(C(=O)O)CC4)=NO3)C2)cc(OCC)c1-c1ccc(F)cc1 | Somatostatin receptor type 5 (SSTR5, Homo sapiens, UniProt P35346, Q123A) | cAMP level, antagonist, GloSensor | AD293 | Q123A mutant, bandwidth 3.36, added: CST17 EC80 and forskolin | IC50 | 5.75 µM
O=S(=O)(c1ccc(-c2ccc3ncnc(Nc4ccc(OCc5cccc(F)c5)c(Cl)c4)c3c2)cc1)N1CCOCC1 | Leishmania major | intracellular amastigote growth, luciferase | RAW264.7 macrophages |  | EC50 | 1.4 µM
O=C(O)Cc1cc2c(cc1C(=O)c1ccc(Cl)cc1Cl)OCO2 | Gria2/Glutamate receptor 3 | ion current, antagonist, patch clamp |  |  | IC50 | 3.98 µM
Cc1nn(-c2cccc(N)c2)c(=O)c2cnc(Nc3ccc(N4CCNCC4)cc3)nc12 | Platelet-derived growth factor receptor alpha (PDGFRA, Homo sapiens, UniProt P16234, V561D) | enzyme activity, inhibitor |  |  | IC50 | 0.491 µM
O=C(O)Cc1cc2c(cc1C(=O)c1cccc(Cl)c1)OCO2 | Gria2/Glutamate receptor 3 | ion current, antagonist, patch clamp |  |  | IC50 | 4.27 µM
C[C@@H](Nc1nc2c(cnn2C(C)(C)C)c(=O)n1Cc1cccc(F)c1)c1ccc(Cl)cc1 | High affinity cGMP-specific 3',5'-cyclic phosphodiesterase 9A (PDE9A, Homo sapiens, UniProt O76083) | enzyme activity, inhibitor |  |  | IC50 | > 10 µM
Cc1oc(C)c(-c2ccc(N(CC(C)C)C3CCCCC3)c(NC(=O)Nc3ccc4c(c3)B(O)OC4)c2)c1C(=O)O | IDO1 | enzyme activity, inhibitor, recombinant enzyme, refers to: kynurenine |  | 20 min, 2% DMSO, added: L-tryptophan | IC50 | 32 ± 5 µM
CC1(C)C(=O)N=C2C1=C(O)C(=O)c1ccccc12 | Histone-lysine N-methyltransferase SETD7 (SETD7, Homo sapiens, UniProt Q8WTS6) | enzyme activity, inhibitor |  |  | IC50 | > 100 µM
C#CCCn1nc(C)c2c(Cl)c(C(=O)NCC3CC(C)=NO3)cnc21 (stereo not shown) | 60 kDa heat shock protein, mitochondrial with HSP10 | HSP60/10-mediated MDH refolding |  | 30 min, preincubation before ATP, added: denatured malate dehydrogenase | IC50 | > 100 µM
Cc1cc(-c2ccc(S(=O)(=O)C3CC(C(=O)NC4(C#N)CC4)N(C(=O)C4(C(F)(F)F)CC4)C3)c(C(F)(F)F)c2)ccn1 (stereo not shown) | Cathepsin S (CTSS, Homo sapiens, UniProt P25774) | enzyme activity, inhibitor, fluorescence |  |  | IC50 | 0.00218 µM
N[C@@H](CCC(=O)O)C(=O)N[C@@H](CCC(=O)O)C(=O)O | DDB1/DCAF12 (Homo sapiens, UniProt Q16531+Q5T6F0) | binding, TR-FRET competition |  |  | IC50 | 384 µM

Some of these lines once more:
Structure (SMILES) | target or system | assay | system | setting | endpoint | value
COc1ccc(CNC(=O)c2cnc3c(c(C)nn3C)c2Cl)cc1 | 60 kDa heat shock protein, mitochondrial with HSP10 | HSP60/10-mediated MDH refolding |  | 30 min, preincubation before ATP, added: denatured malate dehydrogenase | IC50 | 8.9 µM
CO[C@@H]1[C@@H](OC(=O)c2ccc(C)[nH]2)[C@@H](O)[C@H](Oc2ccc3c(O)c(NC(=O)c4c[nH]c(C(=O)Nc5c(O)c6ccc(O[C@@H]7OC(C)(C)[C@H](OC)[C@@H](OC(=O)c8ccc(C)[nH]8)[C@H]7O)c(C)c6oc5=O)c4C)c(=O)oc3c2C)OC1(C)C | Replication protein E1, helicase domain (E1, Human papillomavirus type 16, UniProt P03114) | fork unwinding, inhibitor |  |  | IC50 | ~170 µM
Cc1cc(NC2CCN(C)CC2)ccc1-c1cc2c(N3CCC[C@H](C(=O)NCc4ccc(OC(F)(F)F)cc4)C3)ncnc2[nH]1 | PIM1 | enzyme activity, inhibitor, mobility shift |  |  | IC50 | 5.95 µM
COc1c(Cl)cccc1Nc1c(-c2ccncc2C#C[C@@]2(C)CCCN2C(=O)/C=C/CN(C)C)[nH]c2c1C(=O)NCC2 | Mitogen-activated protein kinase 9 (MAPK9, Homo sapiens, UniProt P45984) |  |  |  | IC50 | > 3 µM
CCCC(=O)OC1CCC2(C)C(CCC3(C)C2CC=C2C4C(C)C(C)CCC4(C(=O)O)CCC23C)C1(C)C (stereo not shown) | UDP-glucuronosyltransferase 1A3 (UGT1A3, Homo sapiens, UniProt P35503) | enzyme activity, inhibitor |  |  | IC50 | 70.2 µM
O=C1CCC(N2C(=O)c3ccc(N4CCC(C(=O)N5CCC(CCN6CCC(CNC(=O)c7cccc(-c8noc(C(F)(F)F)n8)c7)(c7nc(-c8ccccc8)cs7)CC6)CC5)CC4)cc3C2=O)C(=O)N1 (stereo not shown) | Histone deacetylase 7 (HDAC7, Homo sapiens, UniProt Q8WUI4) | enzyme activity, inhibitor |  |  | IC50 | 2.41 µM
